Measurements from different studies.
Every numbered part comes from another study and shows a few of its results, in no order. Several values in a cell are separate wells, animals, samples, runs or records.
Chain of UniProt P10721 (whole entry, unmodified, looked up): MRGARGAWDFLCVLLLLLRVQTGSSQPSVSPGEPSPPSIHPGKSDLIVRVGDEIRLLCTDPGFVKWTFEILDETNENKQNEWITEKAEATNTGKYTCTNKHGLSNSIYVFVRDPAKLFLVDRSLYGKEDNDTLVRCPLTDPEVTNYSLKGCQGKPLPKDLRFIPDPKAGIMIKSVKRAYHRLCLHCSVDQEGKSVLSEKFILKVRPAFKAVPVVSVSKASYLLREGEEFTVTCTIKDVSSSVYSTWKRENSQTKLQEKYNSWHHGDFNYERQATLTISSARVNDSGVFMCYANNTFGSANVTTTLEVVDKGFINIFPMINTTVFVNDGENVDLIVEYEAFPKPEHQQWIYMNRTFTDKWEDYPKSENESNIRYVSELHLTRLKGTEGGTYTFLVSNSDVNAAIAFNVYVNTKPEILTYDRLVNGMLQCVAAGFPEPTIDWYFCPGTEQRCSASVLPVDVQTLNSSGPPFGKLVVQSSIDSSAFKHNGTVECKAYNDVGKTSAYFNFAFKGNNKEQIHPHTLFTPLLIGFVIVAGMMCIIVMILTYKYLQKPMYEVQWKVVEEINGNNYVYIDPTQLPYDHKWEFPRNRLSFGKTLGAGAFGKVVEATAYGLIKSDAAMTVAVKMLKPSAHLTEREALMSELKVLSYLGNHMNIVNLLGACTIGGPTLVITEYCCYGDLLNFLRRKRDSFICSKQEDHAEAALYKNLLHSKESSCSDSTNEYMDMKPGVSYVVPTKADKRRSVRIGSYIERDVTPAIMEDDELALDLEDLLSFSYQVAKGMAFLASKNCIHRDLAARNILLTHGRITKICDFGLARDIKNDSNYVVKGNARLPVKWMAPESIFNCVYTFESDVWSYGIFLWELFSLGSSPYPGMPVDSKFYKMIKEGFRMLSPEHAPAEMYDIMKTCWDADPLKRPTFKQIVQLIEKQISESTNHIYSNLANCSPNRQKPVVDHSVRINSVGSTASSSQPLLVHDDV
Chain of UniProt P54756 (whole entry, looked up): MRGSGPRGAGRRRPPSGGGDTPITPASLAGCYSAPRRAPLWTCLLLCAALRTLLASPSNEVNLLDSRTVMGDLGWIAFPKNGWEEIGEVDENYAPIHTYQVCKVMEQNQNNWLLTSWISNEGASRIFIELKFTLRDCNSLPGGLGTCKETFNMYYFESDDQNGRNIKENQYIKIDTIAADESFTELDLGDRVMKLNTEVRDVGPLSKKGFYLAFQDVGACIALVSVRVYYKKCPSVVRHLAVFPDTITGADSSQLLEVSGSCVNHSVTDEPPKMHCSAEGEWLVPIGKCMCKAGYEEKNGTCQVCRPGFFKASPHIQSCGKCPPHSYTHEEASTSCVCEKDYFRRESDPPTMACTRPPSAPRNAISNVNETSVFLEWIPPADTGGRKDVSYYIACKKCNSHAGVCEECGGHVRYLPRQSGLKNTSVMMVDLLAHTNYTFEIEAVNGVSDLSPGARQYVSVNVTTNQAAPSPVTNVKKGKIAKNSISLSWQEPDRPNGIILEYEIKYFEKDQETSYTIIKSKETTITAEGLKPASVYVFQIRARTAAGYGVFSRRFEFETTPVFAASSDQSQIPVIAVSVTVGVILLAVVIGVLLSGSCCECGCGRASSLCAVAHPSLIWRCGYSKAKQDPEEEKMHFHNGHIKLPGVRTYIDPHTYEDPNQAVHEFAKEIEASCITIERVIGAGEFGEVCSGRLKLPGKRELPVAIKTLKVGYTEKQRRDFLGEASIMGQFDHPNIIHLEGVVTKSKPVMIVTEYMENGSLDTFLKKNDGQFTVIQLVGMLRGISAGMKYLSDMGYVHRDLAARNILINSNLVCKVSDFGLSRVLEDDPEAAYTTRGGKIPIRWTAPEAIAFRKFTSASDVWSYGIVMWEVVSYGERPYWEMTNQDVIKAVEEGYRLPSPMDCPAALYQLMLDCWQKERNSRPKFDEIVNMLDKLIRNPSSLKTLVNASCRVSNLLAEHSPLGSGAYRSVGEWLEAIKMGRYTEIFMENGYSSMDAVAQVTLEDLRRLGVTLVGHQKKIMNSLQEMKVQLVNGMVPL
Chain of UniProt Q9NRH2 (whole entry, looked up): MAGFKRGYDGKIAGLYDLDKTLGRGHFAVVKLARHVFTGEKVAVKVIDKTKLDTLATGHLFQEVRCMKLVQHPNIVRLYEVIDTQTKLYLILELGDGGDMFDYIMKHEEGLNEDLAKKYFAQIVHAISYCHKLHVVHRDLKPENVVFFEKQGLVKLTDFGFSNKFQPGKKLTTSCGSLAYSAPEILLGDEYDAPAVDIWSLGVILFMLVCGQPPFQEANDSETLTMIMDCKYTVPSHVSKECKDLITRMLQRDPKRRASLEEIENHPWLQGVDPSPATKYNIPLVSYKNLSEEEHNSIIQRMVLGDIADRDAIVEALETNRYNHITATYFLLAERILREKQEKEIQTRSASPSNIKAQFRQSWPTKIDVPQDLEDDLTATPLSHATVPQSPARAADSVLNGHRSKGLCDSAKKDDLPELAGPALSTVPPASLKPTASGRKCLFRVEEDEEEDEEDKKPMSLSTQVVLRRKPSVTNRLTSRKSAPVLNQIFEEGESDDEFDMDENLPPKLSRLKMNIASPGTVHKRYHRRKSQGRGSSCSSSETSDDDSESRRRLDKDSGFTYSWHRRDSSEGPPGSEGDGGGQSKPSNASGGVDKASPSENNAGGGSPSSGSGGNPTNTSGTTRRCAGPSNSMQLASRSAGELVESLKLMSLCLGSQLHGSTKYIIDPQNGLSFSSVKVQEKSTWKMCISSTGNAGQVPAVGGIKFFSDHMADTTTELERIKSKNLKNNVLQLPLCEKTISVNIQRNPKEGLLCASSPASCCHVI
Chain of UniProt Q7L7X3 (whole entry, looked up): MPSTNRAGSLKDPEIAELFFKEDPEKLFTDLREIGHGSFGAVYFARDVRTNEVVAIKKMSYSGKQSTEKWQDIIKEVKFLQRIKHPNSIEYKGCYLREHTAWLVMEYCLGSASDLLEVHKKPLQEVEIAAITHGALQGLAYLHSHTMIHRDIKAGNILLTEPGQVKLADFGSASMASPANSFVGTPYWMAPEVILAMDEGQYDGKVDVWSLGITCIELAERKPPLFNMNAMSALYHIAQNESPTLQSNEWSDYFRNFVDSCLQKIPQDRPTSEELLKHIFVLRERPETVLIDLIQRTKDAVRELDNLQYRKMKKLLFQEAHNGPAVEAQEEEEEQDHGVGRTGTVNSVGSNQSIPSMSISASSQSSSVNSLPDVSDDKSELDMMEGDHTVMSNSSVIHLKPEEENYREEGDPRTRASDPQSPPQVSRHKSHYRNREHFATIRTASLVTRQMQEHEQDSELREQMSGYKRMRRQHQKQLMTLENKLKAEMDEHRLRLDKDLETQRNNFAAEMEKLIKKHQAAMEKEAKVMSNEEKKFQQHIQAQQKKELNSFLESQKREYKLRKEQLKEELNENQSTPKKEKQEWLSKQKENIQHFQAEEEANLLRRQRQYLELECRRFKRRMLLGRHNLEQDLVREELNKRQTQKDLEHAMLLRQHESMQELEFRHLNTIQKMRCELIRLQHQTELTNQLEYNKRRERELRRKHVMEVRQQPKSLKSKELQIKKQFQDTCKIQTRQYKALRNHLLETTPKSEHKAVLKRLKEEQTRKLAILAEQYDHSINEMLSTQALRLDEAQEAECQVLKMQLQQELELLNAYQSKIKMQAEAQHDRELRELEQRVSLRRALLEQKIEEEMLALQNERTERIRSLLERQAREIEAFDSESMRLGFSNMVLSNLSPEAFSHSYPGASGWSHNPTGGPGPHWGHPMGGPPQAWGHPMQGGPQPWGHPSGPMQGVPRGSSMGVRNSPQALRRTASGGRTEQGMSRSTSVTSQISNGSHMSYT
Chain of UniProt Q13546 (whole entry, looked up): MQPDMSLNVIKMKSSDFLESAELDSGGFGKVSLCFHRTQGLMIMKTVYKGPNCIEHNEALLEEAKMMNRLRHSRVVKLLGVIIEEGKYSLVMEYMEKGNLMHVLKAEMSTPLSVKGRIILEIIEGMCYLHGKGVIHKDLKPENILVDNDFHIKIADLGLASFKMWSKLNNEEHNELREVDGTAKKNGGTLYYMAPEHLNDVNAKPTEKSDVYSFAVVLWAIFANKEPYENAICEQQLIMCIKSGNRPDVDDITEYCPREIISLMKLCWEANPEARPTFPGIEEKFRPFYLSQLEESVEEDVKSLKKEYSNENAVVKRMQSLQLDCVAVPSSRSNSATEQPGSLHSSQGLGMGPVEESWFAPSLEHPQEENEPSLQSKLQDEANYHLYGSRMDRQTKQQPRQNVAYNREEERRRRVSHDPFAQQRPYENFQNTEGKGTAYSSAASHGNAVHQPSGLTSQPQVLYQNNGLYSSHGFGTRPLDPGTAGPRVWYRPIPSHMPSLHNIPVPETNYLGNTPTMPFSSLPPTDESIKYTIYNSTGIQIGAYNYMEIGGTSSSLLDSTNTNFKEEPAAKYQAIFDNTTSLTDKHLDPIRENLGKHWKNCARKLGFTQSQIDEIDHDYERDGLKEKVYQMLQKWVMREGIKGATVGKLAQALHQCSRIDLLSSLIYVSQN
Chain of UniProt P04049 (whole entry, looked up): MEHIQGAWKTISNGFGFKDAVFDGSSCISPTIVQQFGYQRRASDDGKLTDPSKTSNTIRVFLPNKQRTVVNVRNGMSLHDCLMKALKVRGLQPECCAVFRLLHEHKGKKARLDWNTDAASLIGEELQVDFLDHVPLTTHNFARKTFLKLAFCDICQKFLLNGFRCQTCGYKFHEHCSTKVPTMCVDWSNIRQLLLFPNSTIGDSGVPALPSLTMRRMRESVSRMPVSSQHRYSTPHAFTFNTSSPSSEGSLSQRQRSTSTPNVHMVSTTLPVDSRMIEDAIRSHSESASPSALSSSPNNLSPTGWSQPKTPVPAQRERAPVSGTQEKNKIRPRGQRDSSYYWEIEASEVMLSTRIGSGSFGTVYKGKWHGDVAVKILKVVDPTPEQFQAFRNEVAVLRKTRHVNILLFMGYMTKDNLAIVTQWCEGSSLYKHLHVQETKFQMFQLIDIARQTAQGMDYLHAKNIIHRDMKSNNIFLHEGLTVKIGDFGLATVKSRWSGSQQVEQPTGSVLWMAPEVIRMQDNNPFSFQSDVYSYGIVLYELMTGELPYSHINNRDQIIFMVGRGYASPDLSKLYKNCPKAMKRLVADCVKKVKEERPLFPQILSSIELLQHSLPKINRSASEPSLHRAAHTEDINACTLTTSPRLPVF

Block 1 — method: PRP chromatography estimate; medium: 1,9-decadiene/PBS; pH: 7.4
Structure (SMILES)	logD
CC(C)C[C@@H]1NC(=O)[C@H](CC(C)C)NC(=O)[C@@H](CC(C)C)NC(=O)[C@H](Cc2cscn2)NC(=O)[C@@H](Cc2cscn2)NC(=O)[C@H](Cc2cscn2)NC(=O)[C@H](CCC(=O)N2CCCC2)NC1=O	-2.12
CC(C)C[C@@H]1NC(=O)[C@H](C(C)C)NC(=O)[C@@H](CC(C)C)NC(=O)[C@@H](CC(C)C)NC(=O)[C@@H](CCC(=O)N2CCCC2)NC(=O)[C@H](CC(C)C)NC(=O)[C@@H](CC(C)C)NC1=O	0.581
CC(C)C[C@@H]1NC(=O)[C@H](C)NC(=O)[C@@H](CC(C)C)NC(=O)[C@H](C)NC(=O)[C@H](CC(C)C)NC(=O)[C@H](CC(C)C)NC(=O)[C@H](C)NC1=O	-1.82
CC(C)C[C@@H]1NC(=O)[C@H](C)NC(=O)[C@H](Cc2cscn2)NC(=O)[C@H](CC(C)C)NC(=O)[C@H](C(C)C)NC(=O)[C@H](CC(C)C)NC(=O)[C@@H](CC(C)C)NC1=O	-0.587

Block 2 — target: panel of 300 human kinases; concentration: 0.5 µM; reading: higher = more selective
Structure (SMILES)	Gini score
CSc1nc(-c2ccnc(N[C@@H](C)c3ccccc3)c2)c(-c2ccc(F)cc2)[nH]1 (racemic)	0.63
N#C/C(=C\c1ccc(O)c(O)c1)C(=O)NCc1ccccc1	0.66
COc1cc(Nc2c(C#N)cnc3cc(OCCCN4CCN(C)CC4)c(OC)cc23)c(Cl)cc1Cl	0.61
O=C1c2ccccc2-[n+]2ccc3c([nH]c4ccccc43)c21	0.59
Cc1cc2ncc(-c3ccccc3)nc2cc1C	0.6

Block 3 — observed: cell-free assay; method: competition with immobilised ligand; concentration: 1 µM
SMILES: CN(C)C(=O)Cn1cc(-c2nc([C@@](C)(c3ccc(-c4cnc(N)nc4)cc3)C3CC3)no2)cn1
target	remaining binding [%]
RIPK1 (Homo sapiens, UniProt Q13546)	82
KIT (Homo sapiens, UniProt P10721, L576P)	63
FGFR4 (Homo sapiens, UniProt P22455)	88
DYRK1A (Homo sapiens, UniProt Q13627)	73
LATS2 (Homo sapiens, UniProt Q9NRM7)	74
PKN1 (Homo sapiens, UniProt Q16512)	99
SRPK2 (Homo sapiens, UniProt P78362)	100
EPHA5 (Homo sapiens, UniProt P54756)	100
Ribosomal protein S6 kinase alpha-2, C-terminal kinase domain (RPS6KA2, Homo sapiens, UniProt Q15349)	100
TAOK1 (Homo sapiens, UniProt Q7L7X3)	75
PRKCD (Homo sapiens, UniProt Q05655)	98
HIPK2 (Homo sapiens, UniProt Q9H2X6)	87
RAF1 (Homo sapiens, UniProt P04049)	100
FGFR2 (Homo sapiens, UniProt P21802)	85
KIT (Homo sapiens, UniProt P10721, A829P)	80
SNRK (Homo sapiens, UniProt Q9NRH2)	89
TNK1 (Homo sapiens, UniProt Q13470)	100
BMX (Homo sapiens, UniProt P51813)	93

Block 4 — species: mouse; medium: microsomes or S9; concentration: 2 µM; time: 0.5 h
Structure (SMILES)	remaining compound
OCCOCCN1CCN(c2nc(Cl)cc(Nc3ccc4[nH]ncc4c3)n2)CC1	7.15%
Cn1c(=O)c(O)c(C(=O)NCc2cccc(F)c2)c(=O)n1C	96.6%
O=C(Cn1cnc2c(nnn2-c2cccc(Cl)c2)c1=O)Nc1ccc2c(c1)OCCO2	85%
Cc1ccc(S(=O)(=O)N[C@@H]2c3c(Cl)cccc3[C@H](C(=O)OC(C)C)[C@H]2C(=O)OC(C)C)cc1	< 1%

Block 5 — method: Incucyte 3D growth; concentration: 30 µM; reading: higher = more growth
SMILES: CC(C)(C(=O)O)[C@H](NC(=O)Cc1cccc(I)c1)c1ccc2oc(=O)[nH]c2c1
cell line	time	spheroid area
IPC-298	294 h	2.92e+07 a.u. and 4.11e+07 a.u. and 3.58e+07 a.u. and 3.73e+07 a.u. and 4.28e+07 a.u. and 2.69e+07 a.u.
MEL-JUSO	36.52 h	1.19e+07 a.u. and 1.24e+07 a.u. and 1.22e+07 a.u. and 1.04e+07 a.u. and 1.02e+07 a.u.
MEL-JUSO	432.52 h	3.21e+07 a.u. and 5.08e+07 a.u. and 2.96e+07 a.u. and 7.29e+07 a.u. and 3.25e+07 a.u. and 2.99e+07 a.u.
IPC-298	162 h	2.28e+07 a.u. and 2.99e+07 a.u. and 2.53e+07 a.u. and 2.69e+07 a.u. and 2.65e+07 a.u. and 3.1e+07 a.u.

Single results of other studies
Structure (SMILES)	target	assay	conditions	how to read	quantity	value
C=CCc1ccc(O)c(-c2ccc(O)c(CC=C)c2)c1	Anoctamin-1 (ANO1, Homo sapiens, UniProt Q5XXA6, del476-501)	chloride current, inhibitor, whole-cell voltage clamp	wild type at 100 mV, with: 10 µM magnolol	relative to: with over without magnolol	potency fold increase	1.15

Excerpt of the above (block 3):
target	remaining binding [%]
RAF1 (Homo sapiens, UniProt P04049)	100
FGFR2 (Homo sapiens, UniProt P21802)	85
KIT (Homo sapiens, UniProt P10721, A829P)	80
SNRK (Homo sapiens, UniProt Q9NRH2)	89
